Experimental data pooled from the literature.
Each numbered part is a random draw from the data of one study; scales do not carry over between parts. Substitutions count along the parent as printed.

Sample 1
Target: ABI1, truncated, D143A, DHFR fusion (Arabidopsis thaliana)
Technique: DHFR PCA, deep sequencing
Matrix: yeast
Notes: methotrexate growth selection, single substitutions
Added: (+)-ABA 17 µM
Relative to: wild-type fitted maximum
Reading: higher = stronger binding
Starting sequence: PYL1, truncated, DHFR fusion (Arabidopsis thaliana); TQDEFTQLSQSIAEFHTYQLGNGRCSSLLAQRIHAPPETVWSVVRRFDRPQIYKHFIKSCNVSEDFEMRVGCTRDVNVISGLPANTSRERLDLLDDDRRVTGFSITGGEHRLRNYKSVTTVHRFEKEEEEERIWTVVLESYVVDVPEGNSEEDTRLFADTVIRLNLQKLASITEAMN; partner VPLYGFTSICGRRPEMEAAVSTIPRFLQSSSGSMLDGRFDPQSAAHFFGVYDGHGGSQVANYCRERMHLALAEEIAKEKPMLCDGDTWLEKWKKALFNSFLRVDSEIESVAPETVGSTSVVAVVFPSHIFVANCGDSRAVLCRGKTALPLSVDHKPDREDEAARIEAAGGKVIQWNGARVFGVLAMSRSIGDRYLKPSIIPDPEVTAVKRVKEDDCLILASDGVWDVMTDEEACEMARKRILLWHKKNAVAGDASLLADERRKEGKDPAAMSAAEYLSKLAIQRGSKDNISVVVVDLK
| Substitution | relative binding score |
| --- | --- |
| C72M | 80.3% |
| I33W | 1.86% |
| Q7H | 80.2% |
| L169E | 6.43% |
| S26A | 78.6% |
| R132G | 107% |
| I12F | 21.6% |
| A30T | 85.5% |

Sample 2
Target: Ras GTPase-activating protein-binding protein 1, full length (G3BP1, Homo sapiens, UniProt Q13283)
UniProt Q13283, sequence (whole entry, looked up): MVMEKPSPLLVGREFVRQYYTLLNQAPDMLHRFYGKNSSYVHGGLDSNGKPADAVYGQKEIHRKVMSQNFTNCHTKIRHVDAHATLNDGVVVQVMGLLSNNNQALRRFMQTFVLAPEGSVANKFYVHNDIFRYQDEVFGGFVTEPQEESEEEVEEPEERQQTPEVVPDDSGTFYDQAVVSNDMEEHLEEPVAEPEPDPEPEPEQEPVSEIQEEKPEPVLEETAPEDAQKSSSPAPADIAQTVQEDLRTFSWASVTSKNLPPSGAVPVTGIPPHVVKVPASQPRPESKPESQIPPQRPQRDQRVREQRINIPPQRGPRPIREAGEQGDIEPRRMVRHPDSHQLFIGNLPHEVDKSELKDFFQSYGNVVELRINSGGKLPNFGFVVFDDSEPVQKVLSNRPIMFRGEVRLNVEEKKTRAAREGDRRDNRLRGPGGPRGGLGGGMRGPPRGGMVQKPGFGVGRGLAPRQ
Technique: RNA Bind-n-Seq
Form: RNA
Matrix: in vitro
Tested at: 200 nM
Notes: whole 134-nt RNA, ends assumed
Added: 150 mM LiCl
Relative to: input library
Reading: higher = stronger binding
Each molecule: 7-deaza-guanosine replaces G
All sequences stand within: GGGAGUUCUACAGUCCGACGAUC … UGGAAUUCUCGGGUGUCAAGG
| Strand | log2 enrichment |
| --- | --- |
| UAACUUUAGAGGAGGAUCUGAUGGAUAUGGCAGUGGACGUGGAUUUGGUGAUGGCUAUAAUGGGUAUGGAGGAGGACCUGGAGGUGGCAA | -0.0497 |
| GCAGGAAGUAAAAACAGAUGGAAAUGCUUCGGAUAGUGGCAGGGGUGGGGGUUGCUAAGGAAAGGGUGGGAUGGGAGUGGGUAAAGAGUU | -0.353 |
| CAAGUCCUGUGCUACACAUCGUAUGUACCGAAUCGGUGGAAAAAGGUUUUUUUGGAAAGUAUUAUGUUACGCCGUUCGGAUCUGCACUUC | -1.11 |
| UUGUGAGCUGCAAGCUAGGCUGCAGGCCCAGGAAGAACAGCAUCAGGAAGUCCAGAAGGCAAAAGAAGCAGACAUAGAGAAGCUGAACCA | -2.16 |
| CUGUGCUACACAUCGUAUGUACCGAAUCGGCCCCCCCGGGGCCCCCCCGGGCCCCCCCGGGGAAAGUAUUAUGUUACGCCGUUCGGAUCU | -1.14 |
| UAACUUUAGAGGAGGAUCUGAUGGAUAUGGCAGUGGACGUGGAUUUGGGGAUGGCUAUAAUGGUUAUGGAGGAGGACCUGGAGGUGGCAA | -0.0612 |
| CUCAAGUCCUGUGCUACACAUCGUAUGUACCGAAUCGGGGCGGGCGGGGCGGGAAAGUAUUAUGUUACGCCGUUCGGAUCUGCACUUCCA | -0.131 |
| UUUGAGGUCAAACGCCGCGGGGAACUGCAGCUGAUUAAGAUCUUCCAAUCCUCGGUGUUUGAGGCCUUCCUCAAGGGCAGCACGCUGGAA | -1.69 |

Single results of other studies
| Molecule | tested on | assay | system | conditions | scale | measurement | result |
| --- | --- | --- | --- | --- | --- | --- | --- |
| PSSMRKICTYFHR | Saccharomyces cerevisiae | peptide binding, yeast competitive growth sequencing | peptide, cyclin E2-Cln2 fusion | library 2 | direction not given | enrichment score | -1.13 |
| PhoQ, residues 284 288 289 292 302 303 NLMGRA | PhoP, residues 12 14 15 18 19 MHTVL (Escherichia coli, UniProt P23836) | Sort-seq, item: YFP reporter | E. coli | PhoQ-PhoP variant library, added: 10 µM Mg2+ | relative to: high Mg2+ state, higher = stronger signaling | fold induction | 13 |
| LLKRLQDVVSERA | human cyclin A2 | peptide binding, competitive growth sequencing | peptide, Saccharomyces cerevisiae, cyclin A2-Cln2 fusion strain | mutational scanning library 2 | direction not given | enrichment score | -0.468 |

Excerpt of the above (sample 2):
| Strand | log2 enrichment |
| --- | --- |
| GCAGGAAGUAAAAACAGAUGGAAAUGCUUCGGAUAGUGGCAGGGGUGGGGGUUGCUAAGGAAAGGGUGGGAUGGGAGUGGGUAAAGAGUU | -0.353 |
| CAAGUCCUGUGCUACACAUCGUAUGUACCGAAUCGGUGGAAAAAGGUUUUUUUGGAAAGUAUUAUGUUACGCCGUUCGGAUCUGCACUUC | -1.11 |
